{"data": "Measured values gathered from unrelated publications", "note": "Every numbered part comes from another study and shows a few of its results, in no order."}
{"data": "Study 1", "target": "Histone acetyltransferase KAT6A, both winged helices, GST fusion (KAT6A, Homo sapiens, UniProt Q92794, residues 1-181)", "method": "protein binding microarray", "molecule type": "double-stranded DNA, one strand shown", "medium": "in vitro", "concentration": "not given", "notes": "8-mer, flanks averaged, mean of 2 arrays, mostly near background", "baseline": "not given", "reading": "higher = stronger binding", "Construct (chain)": "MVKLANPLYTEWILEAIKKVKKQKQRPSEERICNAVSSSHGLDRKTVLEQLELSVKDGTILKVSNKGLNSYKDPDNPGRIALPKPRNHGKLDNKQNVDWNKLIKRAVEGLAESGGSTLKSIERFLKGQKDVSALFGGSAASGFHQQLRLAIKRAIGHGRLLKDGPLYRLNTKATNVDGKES"}
{"Sequence": "CTTCTGCC", "E-score": -0.0795}
{"Sequence": "ATTCGATC", "E-score": 0.117}
{"Sequence": "AAACTAGC", "E-score": -0.0186}
{"Sequence": "GAGTGCGC", "E-score": 0.187}
{"Sequence": "CGTTCAGC", "E-score": 0.0307}
{"Sequence": "CGCGAGAC", "E-score": 0.2}
{"Sequence": "GGGCCCCC", "E-score": -0.00327}
{"Sequence": "GCCAGGCA", "E-score": -0.0292}
{"Sequence": "AAAAGTTA", "E-score": -0.0986}
{"Sequence": "ATCTCTTC", "E-score": -0.0773}
{"Sequence": "GCTCCCGA", "E-score": -0.0277}
{"Sequence": "ATAGCTAC", "E-score": -0.231}
{"Sequence": "ATTACCCC", "E-score": -0.0307}
{"Sequence": "ACCAACGG", "E-score": 0.138}
{"Sequence": "CGCATCTA", "E-score": 0.134}
{"Sequence": "AAGCTCTA", "E-score": -0.179}
{"Sequence": "ATACATGC", "E-score": -0.0945}
{"Sequence": "CATCGCAA", "E-score": -0.0532}
{"Sequence": "ATGCGTGG", "E-score": 0.0335}
{"Sequence": "ATCGAGGC", "E-score": -0.0106}
{"Sequence": "AAGCCGTA", "E-score": 0.29}
{"Sequence": "CTGTAGCC", "E-score": -0.133}
{"Sequence": "CTTATTGC", "E-score": -0.137}
{"Sequence": "CCCGGTCA", "E-score": 0.095}
{"Sequence": "GCCGTACC", "E-score": 0.327}
{"data": "Study 2", "target": "Centromere-binding protein 1, full length, N-terminal tag (CBF1, Saccharomyces cerevisiae, UniProt P17106, residues 1-351)", "method": "protein-binding microarray", "molecule type": "double-stranded DNA, one strand shown", "medium": "in vitro", "concentration": "0.8 µM", "notes": "whole 60-bp probe, no competitor", "reading": "higher = stronger binding", "constant ends, left off below": "… GTCTTGATTCGCTTGACGCTGCTG", "sequence of UniProt P17106 (whole entry, looked up)": "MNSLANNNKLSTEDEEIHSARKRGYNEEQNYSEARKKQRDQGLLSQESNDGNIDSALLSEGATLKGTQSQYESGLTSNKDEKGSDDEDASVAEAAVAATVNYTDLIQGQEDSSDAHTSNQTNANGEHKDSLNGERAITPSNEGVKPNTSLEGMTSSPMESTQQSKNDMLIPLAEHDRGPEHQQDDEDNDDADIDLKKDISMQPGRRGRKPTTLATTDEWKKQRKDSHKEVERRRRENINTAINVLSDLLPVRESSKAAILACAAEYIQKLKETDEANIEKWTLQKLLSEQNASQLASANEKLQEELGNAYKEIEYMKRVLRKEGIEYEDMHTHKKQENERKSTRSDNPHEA"}
{"Sequence": "CTAAGTCAGCATCATCATATGAAAATACTTCATTTC", "fluorescence intensity [a.u.]": 528}
{"Sequence": "GAAGAAACCCGTGGGCACGTGGCTGTTATATTTTAG", "fluorescence intensity [a.u.]": 9550}
{"Sequence": "CCTAACTACTATAATAAGCTGATATAGCTTCGTACA", "fluorescence intensity [a.u.]": 520}
{"Sequence": "CTACTGAAGATTCGAAACGTGTTTCCAAAACCATTC", "fluorescence intensity [a.u.]": 604}
{"Sequence": "GAACGTTTGGGGCATGGCGTGTCGCCTAGAAGGTAG", "fluorescence intensity [a.u.]": 519}
{"Sequence": "GAAATATACCCGAATCAGGAGAAACAAAGGCGATAG", "fluorescence intensity [a.u.]": 535}
{"Sequence": "CCTAACTACTATATACATGTGAGATAGCTTCGTACA", "fluorescence intensity [a.u.]": 643}
{"Sequence": "CTACATAGAATTGTTCACGTGGTCTAAATATGTTTC", "fluorescence intensity [a.u.]": 7830}
{"Sequence": "CCTAACTACTATAGTCGCATGCCATAGCTTCGTACA", "fluorescence intensity [a.u.]": 512}
{"Sequence": "CTATGTATATGAGATGTCATGAGCATGAATTATTTC", "fluorescence intensity [a.u.]": 595}
{"Sequence": "CTATTATGTGGGTTAAACGTGGGAGGAGAACTATTC", "fluorescence intensity [a.u.]": 532}
{"Sequence": "GAAACAACAAGGCATCACCAGCTATAGATAATCTAG", "fluorescence intensity [a.u.]": 511}
{"Sequence": "GAAAATTACTACCATCACCTGCATCAAATTCCATAG", "fluorescence intensity [a.u.]": 729}
{"Sequence": "GAAGATAATGTTTGTGACTTTTGTTTCAAATGCTAG", "fluorescence intensity [a.u.]": 531}
{"Sequence": "CTAGTTACTACTCACCTGCTCTCACCGACTCATTTC", "fluorescence intensity [a.u.]": 617}
{"Sequence": "CTATAGACTTCCTTATGCCTGATGTCCTTCCACTTC", "fluorescence intensity [a.u.]": 534}
{"Sequence": "CTACCATTTTTTTCCCTGATGTTCAGCAAACCGTTC", "fluorescence intensity [a.u.]": 553}
{"Sequence": "CTATTTTCACTTTGTCTGGTGATCTTGGGGAATTTC", "fluorescence intensity [a.u.]": 677}
{"Sequence": "CTATTCAAAGCCGCACACGTTTCTTTTTCCGAATTC", "fluorescence intensity [a.u.]": 580}
{"Sequence": "GAAAGCTAAGAATTTCACATGTTGTTGAACTTATAG", "fluorescence intensity [a.u.]": 591}
{"Sequence": "GAATCTTTTATTTATCACCCGCTGAAGCACGCATAG", "fluorescence intensity [a.u.]": 563}
{"Sequence": "GAACGCGTCACGCATCACCCGGCGCAGTATTTCTAG", "fluorescence intensity [a.u.]": 1240}
{"Sequence": "GAAGTAAAGGACCATCACGCCACATCACGTGCATAG", "fluorescence intensity [a.u.]": 14100}
{"Sequence": "CTATATCATCAGCATCACCCTCACTATCGGTAGTTC", "fluorescence intensity [a.u.]": 547}
{"data": "Study 3", "target": "RNA binding protein fox-1 homolog 2, RRM domain, GST-SBP tag (RBFOX2, Homo sapiens, UniProt O43251-10, residues 100-194)", "method": "RNA Bind-n-Seq", "molecule type": "RNA", "medium": "in vitro", "concentration": "365 nM", "notes": "natural RNA segment, single round, ends assumed", "baseline": "no-protein control", "reading": "higher = stronger binding", "constant ends, left off below": "GGGAGUUCUACAGUCCGACGAUC … UGGAAUUCUCGGGUGCCAA", "Target sequence (chain)": "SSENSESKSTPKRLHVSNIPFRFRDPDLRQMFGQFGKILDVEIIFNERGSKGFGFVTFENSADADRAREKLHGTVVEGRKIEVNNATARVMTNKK"}
{"Sequence": "AGGGCCUGACUUGAGCCACUCCUUCCUUCAGGACUCUGCGGGAGGCUGGGGCCCCAUCUUGAUCUUUGAGCCCAUUCUUCUGGGUGUGCUUUUUGGGACCAUCACUGAGA", "RBNS enrichment (R)": 0.242}
{"Sequence": "AGGUCCAGAUAAAUGAGGGUUAUCAGCUAACUGAUAUGUUAUCAUUGAGGUUCGUCAAUGAAUUUGUACAUUUCUAGUUCCCUUUGGUGAAGGGAAAAAUGAUUUUGCAA", "RBNS enrichment (R)": 0.526}
{"Sequence": "AUUAAAAAAGAAUUUGGAGUUAGAAAGGAGGGGUUGUCAUCUCCUGGAGCUCAUUGAUUAGAAGAUAACACCCAGGAAUUGUUUCCACUGGGUCCUGGCUGUCCAUAAGG", "RBNS enrichment (R)": 0.896}
{"Sequence": "UCUUUAUAAGAGAAUAGAGGCAAAAGUAUAGAACUGAGGAUCAUUUGUAUUUUUGAGUUGGAAAUUAUGAAACUUCACCAUAUUAUGAUCAUACAUAUUUUGAAGAACAG", "RBNS enrichment (R)": 0.623}
{"Sequence": "AACACCAACUGGAAAGGUACCCCGUCCCAGGGAAGCCUGCUAGGGAGAGGUUCUGUAGAAUCCGAGCCUAGCACCCCAAAGUCAUGCACCCAGUAUCCUCUUGUAUGACU", "RBNS enrichment (R)": 0.346}
{"Sequence": "ACUUUGUACAAAUUUUGUCAUGCUGGAUGUUAACACAUCUUACUCUAAAUAAACAAGGUGUUGCCACUUUGUAGCACGAAGGAUCUCUAACCCGGGUCUGCGUCUUCACU", "RBNS enrichment (R)": 0.231}
{"Sequence": "AACCCAUUUUGAAUAUUAGCAUUGCCAAUAUCCUGUAUUCUUGUUUUACAUUUGGAUUAGAAAUUUAACAUAGUAAUUCUUAAGUCUUUUGUCUGAUUUUUAAAGUACUU", "RBNS enrichment (R)": 1.16}
{"Sequence": "CCCUUCCCAGCACAUUGAAUGGGUAAGCAGACAGGCCAUGAUUUAGUUGGCCAGCACUAACUCCACCUCUGUUCUCCUUGAACAGCUUCCCCUCCAGCCCACUGCUUUAG", "RBNS enrichment (R)": 0.96}
{"Sequence": "UGAAGGGUUUGGGGUAGCAUUCUGUUUUUUCUUUGCUUUUUCAUUUCUAGCAGAGGCAAGAAUACAUAUUCAUAUACGCUUACUUAUGAAUUACCAUUUUAACAUUUAGA", "RBNS enrichment (R)": 0.65}
{"Sequence": "CCAUCCAGUUGGGAAGCCAUGAUUUUCCUAAGAAUCCAGGGCCAUGGGAGAUACAAUUCCAAGUUCUCGCUUCCUCCUUUGGGCAUCUCUUCUGCCUCCCAAUCAAGGAA", "RBNS enrichment (R)": 0.351}
{"Sequence": "GAAAACCCCUUUCGGGAGAAGAAGUUCUUCUGCGCCAUCCUUUAAGUCUCUGAGAGGAGGCUGAAGAGUGUUGGGGCUCCUGGGACAUACAUGUAGAGUUCCUAGCAAAG", "RBNS enrichment (R)": 0.236}
{"Sequence": "UGGAUUUGGAAUAGAUUACAUAGGAGUAUGAAGUAUGCUGUAAAUAAAAGUACAAGCCAGUGCUUUGUCUUAGUAGUUUUAAGAAAUUAAAGCAAACAGACUUAAGUUUC", "RBNS enrichment (R)": 2.8}
{"data": "Study 4", "target": "Ras GTPase-activating protein-binding protein 1, full length (G3BP1, Homo sapiens, UniProt Q13283)", "method": "RNA Bind-n-Seq", "molecule type": "RNA", "medium": "in vitro", "concentration": "200 nM", "notes": "whole 134-nt RNA, ends assumed", "with": "150 mM LiCl", "baseline": "input library", "reading": "higher = stronger binding", "library": "7-deaza-guanosine replaces G", "constant ends, left off below": "GGGAGUUCUACAGUCCGACGAUC … UGGAAUUCUCGGGUGUCAAGG", "sequence of UniProt Q13283 (whole entry, looked up)": "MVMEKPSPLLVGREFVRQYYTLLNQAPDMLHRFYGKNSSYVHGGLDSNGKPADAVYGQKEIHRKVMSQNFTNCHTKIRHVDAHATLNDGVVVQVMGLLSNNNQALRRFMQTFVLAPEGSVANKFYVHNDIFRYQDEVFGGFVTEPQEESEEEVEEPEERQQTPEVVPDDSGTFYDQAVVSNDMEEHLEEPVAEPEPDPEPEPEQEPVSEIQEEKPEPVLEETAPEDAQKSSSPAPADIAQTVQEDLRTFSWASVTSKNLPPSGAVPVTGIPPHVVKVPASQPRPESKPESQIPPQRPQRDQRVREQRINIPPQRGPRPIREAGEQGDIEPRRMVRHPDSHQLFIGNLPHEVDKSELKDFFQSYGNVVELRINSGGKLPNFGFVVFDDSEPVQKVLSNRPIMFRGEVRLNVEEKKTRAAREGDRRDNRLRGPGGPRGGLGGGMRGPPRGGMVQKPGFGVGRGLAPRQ"}
{"Sequence": "UGGCCCUGGUGGCAUGCGGGGAGGAAGAGGUGGCCUCAUGGAUCGUGGUGGUCCCGGUGGAAUGUUCAGAGGUGGCCGUGGUGGAUACAG", "log2 enrichment": -0.124}
{"Sequence": "ACCAUGCAGGUGGGCAUCUUUGGGAAGUGGGGCAAGGGGGGGAUAGGGAGGGGGGUAACACUUUGGGAACAGGUGGUCCCCGGUCGUUUC", "log2 enrichment": 0.424}
{"Sequence": "AGUCCUGUGCUACACAUCGUAUGUACCGAAUCGGGAAAAAGGGUUUGGGAAAAAGGGAAAGUAUUAUGUUACGCCGUUCGGAUCUGCACU", "log2 enrichment": -1.67}
{"Sequence": "UCCUGUGCUACACAUCGUAUGUACCGAAUCGGGAAAAAAAGGGUUUGGGAAAAAAAGGGAAAGUAUUAUGUUACGCCGUUCGGAUCUGCA", "log2 enrichment": -0.892}
{"Sequence": "CACAGACAACACGCACCCACACAGACACAGAGGGAAGGGGUUGGGUUGGGGACAGGGUGCACAGCAGGGCGGGGUAGGACCCCAGCCCCU", "log2 enrichment": -0.492}
{"Sequence": "CACAGACAACACGCACCCACACAGACACCGAGGGAAGGGGUUGGGAUGGGGACAGGGUGCACAGCAGGGCGGGGUAGGACCCCAGCCCCU", "log2 enrichment": 1.05}
{"Sequence": "ACCAUGCAGGUGGGCAUCUUUGGGAAGUGGGGCAAGGGGGGGAUAGGGAGGGGGGUAACACUUUGGGACCAGGUGGUCCCAGGUCGUUUC", "log2 enrichment": 0.498}
{"Sequence": "AAGUCCUGUGCUACACAUCGUAUGUACCGAAUCGGUUUUGGGUUUUGGGUUUUGGGGAAAGUAUUAUGUUACGCCGUUCGGAUCUGCACU", "log2 enrichment": 0.284}
{"Sequence": "UGACUUUAGGAGAUACCUUAACUCGACGUUCCAUUAGCCAGCAGAAGUCCGGAGUUUCCAUUACCAUUGAUGACCCAGUCCGAACUGCCC", "log2 enrichment": -0.426}
{"Sequence": "ACCAUGCAGGUGGGCAUCUUUGGGAAGUGGGGCAAGGGGGGGAUAGGGAGGGGGGUAACACUUUGGGAACAGGUGGUCCGAGGUCGUUUC", "log2 enrichment": 0.0266}
{"Sequence": "UCCUGUGCUACACAUCGUAUGUACCGAAUCGGUUUUUUUGGUUUUUUUGGUUUUUUUGGAAAGUAUUAUGUUACGCCGUUCGGAUCUGCA", "log2 enrichment": 0.182}
{"note": "Repeated from above (study 1):"}
{"Sequence": "GCTCCCGA", "E-score": -0.0277}
{"Sequence": "ATAGCTAC", "E-score": -0.231}
{"Sequence": "ATTACCCC", "E-score": -0.0307}
{"Sequence": "ACCAACGG", "E-score": 0.138}
{"Sequence": "CGCATCTA", "E-score": 0.134}
